Experimental data from different studies.
Lines come from different studies, so protocols differ.
Organism: Pseudomonas aeruginosa

SMILES	assay	system	conditions	MIC
CCn1c(-c2ccc(-c3ccc(OC)cc3)cc2)c(-c2ccc(-c3ccc(OC)cc3)cc2)n(CC)c1=[Se]	broth microdilution	carbapenem-resistant BAA-2108	24 h	> 40 µM
CC(C)C[C@@H]1NC(=O)[C@@H](CC(C)C)NC(=O)[C@H](CCN)NC(=O)[C@@H](NC(=O)[C@H](CCN)NC(=O)[C@@H](NC(=O)CCCCN=[N+]=[N-])[C@@H](C)O)CCNC(=O)[C@H]([C@@H](C)O)NC(=O)[C@H](CCN)NC(=O)[C@H](CCN)NC1=O	broth microdilution	ATCC 13883, cation-adjusted Mueller-Hinton broth	–	4 µM
CC[C@H](C)[C@H](NC(=O)[C@H](CCCCN)NC(=O)[C@H](Cc1c[nH]c2ccccc12)NC(=O)[C@H](Cc1c[nH]c2ccccc12)NC(=O)[C@H](CCCCN)NC(=O)[C@H](CCCCN)NC(=O)[C@H](CCCCN)NC(=O)[C@H](Cc1c[nH]c2ccccc12)NC(=O)[C@H](CCCCN)NC(=O)[C@H](CCCCN)NC(=O)[C@H](Cc1c[nH]c2ccccc12)NC(=O)[C@H](CCCCN)NC(=O)[C@H](CCCCN)NC(=O)[C@@H](NC(=O)[C@@H](NC(=O)[C@H](CCCCN)NC(=O)[C@@H](N)CCCNC(=N)N)[C@@H](C)CC)[C@@H](C)CC)C(=O)N[C@@H](Cc1c[nH]c2ccccc12)C(=O)N[C@@H](Cc1c[nH]c2ccccc12)C(=O)N[C@@H](CCCCN)C(N)=O	broth microdilution	01	–	2 µg/mL
CN[C@H](CC(C)C)C(=O)N[C@H]1C(=O)N[C@@H](CC(N)=O)C(=O)N[C@H]2C(=O)N[C@H]3C(=O)N[C@H](C(=O)N[C@H](C(=O)O)c4cc(O)cc(O)c4-c4cc3ccc4O)[C@H](O)c3ccc(c(Cl)c3)Oc3cc2cc(c3O[C@@H]2O[C@H](CO)[C@@H](O)[C@H](O)[C@H]2O[C@H]2C[C@](C)(NCc3ccc(OCc4cn(CC(=O)N[C@H](C(=O)N[C@@H](CCN)C(=O)N[C@H]5CCNC(=O)[C@H]([C@@H](C)O)NC(=O)[C@H](CCN)NC(=O)[C@H](CCN)NC(=O)[C@H](CC(C)C)NC(=O)[C@@H](CC(C)C)NC(=O)[C@H](CCN)NC5=O)[C@@H](C)O)nn4)c(OC)c3)[C@H](O)[C@H](C)O2)Oc2ccc(cc2Cl)[C@H]1O	broth microdilution	ATCC 13883, cation-adjusted Mueller-Hinton broth	–	3 µM
CC[C@H](C)[C@H](NC(=O)[C@@H](CCCNC(=N)N)NC(=O)[C@H](CCCNC(=N)N)NC(=O)[C@@H]1CCCN1C(=O)[C@@H]1CCCN1C(=O)[C@H](CCCNC(=N)N)NC(=O)[C@@H]1CCCN1C(=O)[C@H](CCCNC(=N)N)NC(=O)[C@@H]1CCCN1C(=O)[C@H](CC(C)C)NC(=O)[C@H](Cc1ccc(O)c([N+](=O)[O-])c1)NC(=O)[C@@H]1CCCN1C(=O)[C@@H]1CCCN1C(=O)[C@H](CCCCN)NC(=O)[C@H](CC(=O)O)NC(=O)[C@@H](N)C(C)C)C(=O)N[C@@H](Cc1ccc(O)cc1)C(=O)N[C@@H](CC(N)=O)C(=O)N[C@H](CCCNC(=N)N)C(N)=O	broth microdilution	DSM 1117	18 h, 37 °C, 25% MHB2	> 128 µg/mL
CC(C)C[C@@H]1NC(=O)[C@H](CCCCN)NC(=O)C(N)CCC=CCCCC(C(N)=O)NC(=O)[C@H](CCCCN)NC(=O)[C@H](CC(C)C)NC(=O)[C@H](CCCCN)NC(=O)C2CCCC=CCCC(NC(=O)[C@H](CCCCN)NC1=O)C(=O)N[C@@H](CCCCN)C(=O)N1CCC[C@@H]1C(=O)NCC(=O)N[C@@H](CCCCN)C(=O)N2 (stereo partly shown)	broth microdilution	ATCC 9027, Mueller-Hinton broth	18 h, 37 °C	64 µM
CC[C@H](C)[C@H](NC(=O)[C@@H](CCCNC(=N)N)NC(=O)[C@H](CCCNC(=N)N)NC(=O)[C@H](C)NC(=O)[C@H](Cc1c[nH]c2ccccc12)NC(=O)[C@H](CCCNC(=N)N)NC(=O)[C@@H]1CCCN1C(=O)[C@H](CCCNC(=N)N)NC(=O)[C@@H]1CCCN1C(=O)[C@H](CC(C)C)NC(=O)[C@H](Cc1ccc(O)cc1)NC(=O)[C@@H]1CCCN1C(=O)[C@@H]1CCCN1C(=O)[C@H](CCCCN)NC(=O)[C@H](CC(=O)O)NC(=O)[C@@H](N)C(C)C)C(=O)N[C@@H](Cc1ccc(O)cc1)C(=O)N[C@@H](CC(N)=O)C(=O)N[C@H](CCCNC(=N)N)C(N)=O	broth microdilution	DSM 1117	18 h, 37 °C, 25% MHB2	> 128 µg/mL
CCCCCCCC(=O)N[C@@H](CCN)C(=O)N[C@H](C(=O)N[C@@H](CCN)C(=O)N[C@H]1CCNC(=O)[C@H]([C@@H](C)O)NC(=O)[C@H](CCN)NC(=O)[C@H](CCN)NC(=O)[C@H](Cc2ccc(F)cc2)NC(=O)[C@@H](CC(C)C)NC(=O)[C@H](CCN)NC1=O)[C@@H](C)O	broth microdilution	colistin-resistant isolates	–	32 to 64 µg/mL
CC(C)C[C@@H]1NC(=O)[C@@H](CC(C)C)NC(=O)[C@H](CCN)NC(=O)[C@@H](NC(=O)[C@H](CCN)NC(=O)[C@@H](NC(=O)CN=[N+]=[N-])[C@@H](C)O)CCNC(=O)[C@H]([C@@H](C)O)NC(=O)[C@H](CCN)NC(=O)[C@H](CCN)NC1=O	broth microdilution	ATCC 10145, cation-adjusted Mueller-Hinton broth	–	8 µM
CC[C@H](C)[C@H](NC(=O)[C@H](C)NC(=O)[C@@H](NC(=O)[C@H](CC(=O)O)NC(=O)[C@H](CCCCN)NC(=O)[C@H](CO)NC(=O)[C@@H](NC(=O)[C@H](CC(N)=O)NC(=O)[C@H](C)NC(=O)[C@@H](NC(=O)[C@H](CCC(=O)O)NC(=O)[C@H](CCCCN)NC(=O)[C@@H](NC(=O)[C@@H](NC(=O)[C@H](Cc1c[nH]cn1)NC(=O)[C@H](CCCCN)NC(=O)[C@@H](NC(=O)[C@H](CCCCN)NC(=O)[C@H](CCCCN)NC(=O)[C@@H](NC(=O)[C@H](CC(C)C)NC(=O)[C@H](CCCCN)NC(=O)[C@H](CC(N)=O)NC(=O)[C@H](Cc1ccccc1)NC(=O)[C@H](CCCNC(=N)N)NC(=O)[C@H](CCCCN)NC(=O)[C@H](CCCNC(=N)N)NC(=O)[C@H](Cc1ccccc1)NC(=O)CN)C(C)C)C(C)C)[C@@H](C)O)[C@@H](C)CC)[C@@H](C)O)C(C)C)C(C)C)C(=O)N[C@H](C(=O)N[C@@H](C)C(=O)NCC(=O)N[C@@H](CO)C(=O)NCC(=O)N[C@H](C(=O)N[C@@H](C)C(=O)N[C@H](C(=O)NCC(=O)N[C@@H](C)C(=O)N[C@@H](C)C(=O)N[C@@H](CCSC)C(N)=O)C(C)C)C(C)C)C(C)C	broth microdilution	RKI 93/12, CAMHB with 10% mouse serum	150 mM NaCl	128 µg/mL
CN[C@H](CC(C)C)C(=O)N[C@H]1C(=O)N[C@@H](CC(N)=O)C(=O)N[C@H]2C(=O)N[C@H]3C(=O)N[C@H](C(=O)N[C@H](C(=O)O)c4cc(O)cc(O)c4-c4cc3ccc4O)[C@H](O)c3ccc(c(Cl)c3)Oc3cc2cc(c3O[C@@H]2O[C@H](CO)[C@@H](O)[C@H](O)[C@H]2O[C@H]2C[C@](C)(NCc3ccc(OCc4cn(CCCCC(=O)N[C@H](C(=O)N[C@@H](CCN)C(=O)N[C@H]5CCNC(=O)[C@H]([C@@H](C)O)NC(=O)[C@H](CCN)NC(=O)[C@H](CCN)NC(=O)[C@H](CC(C)C)NC(=O)[C@@H](CC(C)C)NC(=O)[C@H](CCN)NC5=O)[C@@H](C)O)nn4)c(OC)c3)[C@H](O)[C@H](C)O2)Oc2ccc(cc2Cl)[C@H]1O	broth microdilution	ATCC 27736, cation-adjusted Mueller-Hinton broth	–	6 µM
CCCCCCCC[C@@H]1NC(=O)[C@@H](Cc2ccccc2)NC(=O)[C@H](CCN)NC(=O)[C@@H](NC(=O)[C@H](CCN)NC(=O)[C@@H](NC(=O)[C@H](CCN)NC(=O)CCCCCCC)[C@@H](C)O)CCNC(=O)[C@H]([C@@H](C)O)NC(=O)[C@H](CCN)NC(=O)[C@H](CCN)NC1=O	broth microdilution	colistin-resistant isolates	–	0.25 to 1 µg/mL
CC(=O)N[C@@H](CC(C)C)C(=O)N[C@H]1CSSC[C@@H](C(=O)N2CCC[C@H]2C(N)=O)NC(=O)[C@H]([C@@H](C)O)NC(=O)[C@H](C(C)C)NC(=O)[C@H]([C@@H](C)O)NC(=O)CNC(=O)[C@H](CC(C)C)NC(=O)[C@H](Cc2ccccc2)NC(=O)[C@H](Cc2ccc(O)cc2)NC(=O)[C@H](CC(C)C)NC(=O)[C@H](CCCCN)NC(=O)[C@H](Cc2ccccc2)NC(=O)[C@H](CCCNC(=N)N)NC(=O)[C@H](CCC(N)=O)NC(=O)[C@H](CC(C)C)NC(=O)[C@H](CCCCN)NC(=O)[C@@H]2CCCN2C(=O)[C@H](CCCCN)NC(=O)[C@H](C(C)C)NC(=O)[C@H](CC(N)=O)NC(=O)[C@H](Cc2ccc(O)cc2)NC(=O)[C@H]([C@@H](C)O)NC1=O	broth dilution	CGMCC strain	24 h	20 to 40 µM
O=c1n(CCNCCOS(=O)(=O)c2ccccc2)c(=O)n(S(=O)(=O)c2ccccc2)c(=O)n1S(=O)(=O)c1ccccc1	microbial growth, broth dilution	–	–	2 µg/mL
CC(C)C[C@@H]1NC(=O)[C@@H](CC(C)C)NC(=O)[C@H](CCN)NC(=O)[C@@H](NC(=O)[C@H](CCN)NC(=O)[C@@H](NC(=O)CCOCCOCCOCCN=[N+]=[N-])[C@@H](C)O)CCNC(=O)[C@H]([C@@H](C)O)NC(=O)[C@H](CCN)NC(=O)[C@H](CCN)NC1=O	broth microdilution	ATCC 13883, cation-adjusted Mueller-Hinton broth	–	28 µM
CC[C@H](C)[C@H](NC(=O)[C@@H]1CCCN1C(=O)CNC(=O)[C@H](CC(C)C)NC(=O)[C@H](CCCCN)NC(=O)[C@H](CCCNC(=N)N)NC(=O)[C@H](Cc1c[nH]c2ccccc12)NC(=O)[C@H](C)NC(=O)[C@H](CC(N)=O)NC(=O)[C@H](CCCCN)NC(=O)[C@H](CC(C)C)NC(=O)[C@H](CCCCN)NC(=O)[C@H](CC(N)=O)NC(=O)[C@H](CCCNC(=N)N)NC(=O)[C@H](C)NC(=O)[C@H](CCCNC(=N)N)NC(=O)[C@H](CCCNC(=N)N)NC(=O)[C@H](Cc1ccccc1)NC(=O)[C@H](Cc1c[nH]c2ccccc12)NC(=O)CN)C(=O)N[C@H](C(=O)NCC(=O)N1CCC[C@H]1C(=O)N[C@@H](CC(C)C)C(=O)N[C@@H](CC(C)C)C(=O)N[C@H](C(=O)N[C@@H](CCCNC(=N)N)C(=O)O)[C@@H](C)O)C(C)C	broth microdilution	ATCC 27853, Mueller-Hinton broth	16 to 20 h, 37 °C	4.39 µg/mL

Some of these lines once more:
SMILES	assay	system	conditions	MIC
CC(C)C[C@@H]1NC(=O)[C@@H](CC(C)C)NC(=O)[C@H](CCN)NC(=O)[C@@H](NC(=O)[C@H](CCN)NC(=O)[C@@H](NC(=O)CN=[N+]=[N-])[C@@H](C)O)CCNC(=O)[C@H]([C@@H](C)O)NC(=O)[C@H](CCN)NC(=O)[C@H](CCN)NC1=O	broth microdilution	ATCC 10145, cation-adjusted Mueller-Hinton broth	–	8 µM
